Assay results pooled from the literature.
A part holds a random share of what one study measured. Values joined by “and” are separate records of one study, mostly repeats; a detail may differ.
Chain of UniProt Q9UBE8 (whole entry, looked up): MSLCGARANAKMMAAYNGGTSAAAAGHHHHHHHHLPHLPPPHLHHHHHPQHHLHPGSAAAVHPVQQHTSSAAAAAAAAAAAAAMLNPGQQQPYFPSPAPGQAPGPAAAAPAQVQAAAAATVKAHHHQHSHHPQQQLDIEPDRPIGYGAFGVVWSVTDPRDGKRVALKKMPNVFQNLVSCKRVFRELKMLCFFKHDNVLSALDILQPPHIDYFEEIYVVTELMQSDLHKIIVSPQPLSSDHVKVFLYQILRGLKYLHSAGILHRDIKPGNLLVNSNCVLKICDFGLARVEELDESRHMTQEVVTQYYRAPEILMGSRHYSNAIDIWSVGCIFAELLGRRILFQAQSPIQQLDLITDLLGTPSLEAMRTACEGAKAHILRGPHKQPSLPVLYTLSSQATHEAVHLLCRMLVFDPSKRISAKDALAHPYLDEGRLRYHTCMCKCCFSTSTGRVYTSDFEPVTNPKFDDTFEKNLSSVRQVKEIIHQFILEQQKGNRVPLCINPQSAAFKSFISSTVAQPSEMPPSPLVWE
Chain of UniProt P51812 (whole entry, looked up): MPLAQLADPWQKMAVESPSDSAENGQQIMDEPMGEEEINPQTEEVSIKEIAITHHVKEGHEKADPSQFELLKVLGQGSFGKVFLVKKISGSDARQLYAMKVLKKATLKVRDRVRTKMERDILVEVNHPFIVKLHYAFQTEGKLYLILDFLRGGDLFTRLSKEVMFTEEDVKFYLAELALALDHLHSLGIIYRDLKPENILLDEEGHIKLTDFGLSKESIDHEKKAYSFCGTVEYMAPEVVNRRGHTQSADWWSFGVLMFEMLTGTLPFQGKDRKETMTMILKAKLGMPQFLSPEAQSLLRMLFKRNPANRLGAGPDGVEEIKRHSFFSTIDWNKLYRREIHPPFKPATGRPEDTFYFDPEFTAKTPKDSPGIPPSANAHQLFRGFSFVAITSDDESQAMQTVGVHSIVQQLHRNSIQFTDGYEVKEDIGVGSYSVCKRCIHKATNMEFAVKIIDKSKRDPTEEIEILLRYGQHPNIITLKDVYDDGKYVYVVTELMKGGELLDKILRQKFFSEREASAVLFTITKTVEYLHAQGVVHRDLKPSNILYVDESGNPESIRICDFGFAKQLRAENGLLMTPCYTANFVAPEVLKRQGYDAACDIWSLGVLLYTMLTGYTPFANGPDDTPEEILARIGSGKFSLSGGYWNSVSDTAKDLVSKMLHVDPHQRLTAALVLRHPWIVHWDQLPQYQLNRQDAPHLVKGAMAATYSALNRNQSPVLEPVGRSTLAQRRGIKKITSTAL
Chain of UniProt P48729 (whole entry, looked up): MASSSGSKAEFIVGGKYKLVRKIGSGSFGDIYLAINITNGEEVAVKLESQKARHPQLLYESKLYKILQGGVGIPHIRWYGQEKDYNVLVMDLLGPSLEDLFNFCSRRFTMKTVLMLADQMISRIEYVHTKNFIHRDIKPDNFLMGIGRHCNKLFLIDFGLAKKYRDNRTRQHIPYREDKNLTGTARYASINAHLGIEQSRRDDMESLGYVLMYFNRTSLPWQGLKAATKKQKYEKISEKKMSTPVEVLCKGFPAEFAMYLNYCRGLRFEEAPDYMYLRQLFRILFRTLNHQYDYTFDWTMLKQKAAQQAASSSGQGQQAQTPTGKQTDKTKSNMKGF
Chain of UniProt Q9NY57 (whole entry, looked up): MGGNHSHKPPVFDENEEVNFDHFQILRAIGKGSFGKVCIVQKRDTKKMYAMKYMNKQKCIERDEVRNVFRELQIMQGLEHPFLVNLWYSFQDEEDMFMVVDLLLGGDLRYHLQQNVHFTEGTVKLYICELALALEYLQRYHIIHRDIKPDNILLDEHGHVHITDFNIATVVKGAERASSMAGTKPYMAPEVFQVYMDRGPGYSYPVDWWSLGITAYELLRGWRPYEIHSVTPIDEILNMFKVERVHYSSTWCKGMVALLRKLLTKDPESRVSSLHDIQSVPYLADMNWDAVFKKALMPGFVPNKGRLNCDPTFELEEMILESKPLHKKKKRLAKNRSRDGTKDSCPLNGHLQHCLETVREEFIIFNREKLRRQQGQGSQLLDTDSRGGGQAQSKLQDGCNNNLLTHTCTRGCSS
Chain of UniProt P45984 (whole entry, looked up): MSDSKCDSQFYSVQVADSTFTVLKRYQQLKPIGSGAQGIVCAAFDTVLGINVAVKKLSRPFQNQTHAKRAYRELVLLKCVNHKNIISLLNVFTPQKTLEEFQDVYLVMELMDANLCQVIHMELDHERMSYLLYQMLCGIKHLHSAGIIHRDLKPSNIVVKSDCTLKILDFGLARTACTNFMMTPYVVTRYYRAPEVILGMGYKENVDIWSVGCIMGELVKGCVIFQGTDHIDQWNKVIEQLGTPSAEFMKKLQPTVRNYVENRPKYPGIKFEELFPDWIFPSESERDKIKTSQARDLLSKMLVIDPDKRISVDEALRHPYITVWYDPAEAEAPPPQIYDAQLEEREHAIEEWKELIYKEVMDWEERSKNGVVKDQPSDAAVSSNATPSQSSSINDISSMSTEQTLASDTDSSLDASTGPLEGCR
Chain of UniProt Q86Z02 (whole entry, looked up): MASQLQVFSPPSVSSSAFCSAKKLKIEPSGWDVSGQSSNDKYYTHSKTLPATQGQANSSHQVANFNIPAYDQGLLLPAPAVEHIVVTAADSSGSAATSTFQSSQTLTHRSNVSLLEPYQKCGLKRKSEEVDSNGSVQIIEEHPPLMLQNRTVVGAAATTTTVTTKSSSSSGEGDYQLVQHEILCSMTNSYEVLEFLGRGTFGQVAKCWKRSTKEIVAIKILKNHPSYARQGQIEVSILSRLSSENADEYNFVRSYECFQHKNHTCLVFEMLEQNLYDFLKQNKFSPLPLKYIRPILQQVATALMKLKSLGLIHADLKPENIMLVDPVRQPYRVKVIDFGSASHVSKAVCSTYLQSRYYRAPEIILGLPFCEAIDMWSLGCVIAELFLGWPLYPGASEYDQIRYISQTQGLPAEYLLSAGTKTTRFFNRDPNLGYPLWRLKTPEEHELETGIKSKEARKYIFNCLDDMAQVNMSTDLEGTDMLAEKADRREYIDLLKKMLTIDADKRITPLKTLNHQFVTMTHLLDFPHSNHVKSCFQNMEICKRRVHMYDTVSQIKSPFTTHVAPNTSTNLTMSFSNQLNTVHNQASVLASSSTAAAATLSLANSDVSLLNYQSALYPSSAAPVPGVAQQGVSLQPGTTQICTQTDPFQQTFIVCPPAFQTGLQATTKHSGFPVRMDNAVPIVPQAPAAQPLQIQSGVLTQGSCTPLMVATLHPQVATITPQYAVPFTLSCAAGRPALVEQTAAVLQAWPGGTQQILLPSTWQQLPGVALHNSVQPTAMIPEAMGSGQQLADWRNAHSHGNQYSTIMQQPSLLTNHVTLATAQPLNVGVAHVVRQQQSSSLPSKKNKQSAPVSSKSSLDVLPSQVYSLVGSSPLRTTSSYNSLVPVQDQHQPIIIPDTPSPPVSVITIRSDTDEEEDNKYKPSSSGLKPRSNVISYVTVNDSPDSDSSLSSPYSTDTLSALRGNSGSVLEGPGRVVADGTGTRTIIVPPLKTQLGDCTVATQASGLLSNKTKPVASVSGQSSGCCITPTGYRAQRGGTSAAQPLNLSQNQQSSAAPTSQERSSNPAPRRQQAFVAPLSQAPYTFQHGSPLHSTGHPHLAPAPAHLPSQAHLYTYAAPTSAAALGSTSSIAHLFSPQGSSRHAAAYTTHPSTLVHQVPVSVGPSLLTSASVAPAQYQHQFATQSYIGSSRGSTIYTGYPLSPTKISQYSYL
Chain of UniProt P06241 (whole entry, looked up): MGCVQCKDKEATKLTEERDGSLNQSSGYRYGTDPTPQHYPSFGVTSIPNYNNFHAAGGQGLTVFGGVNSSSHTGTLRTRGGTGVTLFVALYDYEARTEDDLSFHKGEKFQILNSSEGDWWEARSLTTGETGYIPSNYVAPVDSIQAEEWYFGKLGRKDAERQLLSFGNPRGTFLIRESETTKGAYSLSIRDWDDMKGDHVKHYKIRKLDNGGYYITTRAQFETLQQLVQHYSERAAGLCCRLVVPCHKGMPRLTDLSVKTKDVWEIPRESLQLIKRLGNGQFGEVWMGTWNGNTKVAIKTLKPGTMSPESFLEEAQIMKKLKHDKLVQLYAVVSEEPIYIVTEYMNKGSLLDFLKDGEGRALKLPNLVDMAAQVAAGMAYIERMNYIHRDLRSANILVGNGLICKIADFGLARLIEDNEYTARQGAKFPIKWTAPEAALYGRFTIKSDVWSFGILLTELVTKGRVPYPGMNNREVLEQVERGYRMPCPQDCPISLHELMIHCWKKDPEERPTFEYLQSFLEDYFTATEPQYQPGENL
Chain of UniProt P52564 (whole entry, looked up): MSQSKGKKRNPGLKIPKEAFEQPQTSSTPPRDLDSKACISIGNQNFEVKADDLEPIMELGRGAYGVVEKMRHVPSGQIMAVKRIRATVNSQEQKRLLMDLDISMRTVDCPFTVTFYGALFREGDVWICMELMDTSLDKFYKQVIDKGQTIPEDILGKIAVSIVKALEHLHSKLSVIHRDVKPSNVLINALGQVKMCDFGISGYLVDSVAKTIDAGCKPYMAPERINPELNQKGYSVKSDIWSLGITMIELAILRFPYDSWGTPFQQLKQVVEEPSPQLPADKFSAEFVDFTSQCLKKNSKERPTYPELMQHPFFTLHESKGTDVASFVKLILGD
Chain of UniProt Q9HBY8 (whole entry, looked up): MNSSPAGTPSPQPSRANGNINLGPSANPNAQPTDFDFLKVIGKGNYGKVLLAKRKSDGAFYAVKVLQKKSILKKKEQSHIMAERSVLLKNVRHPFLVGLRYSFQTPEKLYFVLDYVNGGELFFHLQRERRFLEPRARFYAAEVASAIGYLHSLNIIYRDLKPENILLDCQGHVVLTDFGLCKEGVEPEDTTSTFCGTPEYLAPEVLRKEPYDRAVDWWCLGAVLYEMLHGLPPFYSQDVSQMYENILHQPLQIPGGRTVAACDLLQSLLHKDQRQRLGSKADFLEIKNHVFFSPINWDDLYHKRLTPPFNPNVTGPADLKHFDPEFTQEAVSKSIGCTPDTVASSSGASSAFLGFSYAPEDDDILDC

Series 1 — cell line: HCC1569; technique: in-cell western; item: CDK1 phospho-Thr14; measurement: pCDK1 (Thr14) level
Structure (SMILES): Cc1ccc(O)c(C)c1-c1cnc2[nH]c(-c3cnc(N4CCC5(CC4)CC(N4CCN(c6ccc7c(c6F)CN(C6CCC(=O)NC6=O)C7=O)CC4)CO5)nc3)cc2c1C#N (mixture of isomers)
0.0051 nM: 6.36 RLU and 4.72 RLU
1000 nM: 108 RLU
333.33 nM: 95.6 RLU and 90.2 RLU
37.04 nM: 54.9 RLU and 52.4 RLU
12.35 nM: 32.9 RLU and 36.5 RLU
1.37 nM: 13.4 RLU and 7.04 RLU
4.12 nM: 25.1 RLU and 18.2 RLU
111.11 nM: 76.9 RLU and 74.9 RLU

Series 2 — organism: Arabidopsis thaliana; strain: Col-0; concentration: 25 µg/mL; setting: seed germination, single repetition; measurement: hypocotyl length
O=C(O)C1Oc2cc(F)ccc2N(Cc2ccccc2)C1=O (centres unmarked): 2.13 cm and 2 cm and 2.1 cm and 2.01 cm and 2.04 cm
CCCN1C(=O)C(O)(C(=O)O)Oc2cc(F)ccc21 (centres unmarked): 1.67 cm and 1.79 cm and 1.68 cm and 1.7 cm
O=C(O)C1(O)Oc2cc(F)ccc2N(Cc2ccccc2)C1=O (centres unmarked): 0.98 cm and 0.95 cm and 1.02 cm and 0.92 cm
COc1ccc2c(c1)OC(O)(C(=O)O)C(=O)N2Cc1ccccc1 (centres unmarked): 1.55 cm and 1.52 cm and 1.62 cm and 1.77 cm and 1.5 cm
O=C(O)C1(O)Oc2cc(Cl)ccc2N(Cc2ccccc2)C1=O (centres unmarked): 1.69 cm and 1.68 cm and 1.66 cm and 1.62 cm and 1.63 cm

Series 3 — observed: binding; technique: competition with immobilised ligand; concentration: 1 µM; measurement: remaining binding
SMILES: COc1cc(-c2nc3ccc(C(=O)NCCCN(C)C)cc3n2C2CCC2)cc(OC)c1OC
Serine/threonine-protein kinase 32B (STK32B, Homo sapiens, UniProt Q9NY57): 95%
Ribosomal protein S6 kinase alpha-3, C-terminal kinase domain (RPS6KA3, Homo sapiens, UniProt P51812): 67%
Serine/threonine-protein kinase NLK (NLK, Homo sapiens, UniProt Q9UBE8): 94%
Mitogen-activated protein kinase 9 (MAPK9, Homo sapiens, UniProt P45984): 92%
Tyrosine-protein kinase Fyn (FYN, Homo sapiens, UniProt P06241): 61%
Tyrosine-protein kinase ABL1, non-phosphorylated (ABL1, Homo sapiens, UniProt P00519, F317I): 84%
Casein kinase I isoform alpha (CSNK1A1, Homo sapiens, UniProt P48729): 98%
Homeodomain-interacting protein kinase 1 (HIPK1, Homo sapiens, UniProt Q86Z02): 87%
Dual specificity mitogen-activated protein kinase kinase 6 (MAP2K6, Homo sapiens, UniProt P52564): 100%
Mitogen-activated protein kinase 8 (MAPK8, Homo sapiens, UniProt P45983): 62%
Tyrosine-protein kinase ABL1, phosphorylated (ABL1, Homo sapiens, UniProt P00519, Q252H): 55%
Serine/threonine-protein kinase STK11 (STK11, Homo sapiens, UniProt Q15831): 74%
Bone morphogenetic protein receptor type-2 (BMPR2, Homo sapiens, UniProt Q13873): 90%
Serine/threonine-protein kinase PAK 5 (PAK5, Homo sapiens, UniProt Q9P286): 85%
Serine/threonine-protein kinase Sgk2 (SGK2, Homo sapiens, UniProt Q9HBY8): 62%

Series 4 — cell line: U-87 MG; concentration: concentration not given; reference: DMSO; measurement: log2 fold change
Structure (SMILES): CCN1/C(=C/C=C2\CCCC(/C=C/C3=[N+](CC)c4ccccc4C3(C)C)=C2NCCCCCCCCN2CCC(Nc3nc4ccccc4n3Cc3ccc(F)cc3)CC2)C(C)(C)c2ccccc21
item: PITPNM2 mRNA: -1.04
item: RTL8B mRNA: -1.3
item: NREP mRNA: -2.63
item: SLITRK5 mRNA: -3.02
item: ANP32A mRNA: -0.892
item: ABHD4 mRNA: 1.44
item: TET2 mRNA: 1.04
item: ZNF408 mRNA: 0.806
item: KIF14 mRNA: -2.18
item: DEPTOR mRNA: -1.22
item: OLFML3 mRNA: -2.32
item: RECQL4 mRNA: -1.67
item: KCNA7 mRNA: -2.15
item: NCAPG mRNA: -1.8
item: RMI1 mRNA: -1.08
item: WAC mRNA: 0.807
